Measurements of several laboratories.
Compare with care: the assays were run in different laboratories. ± gives the spread as reported.
Cell line: HCT-116

| Compound | effect on | technique | tested at | time | relative to | measurement | value |
| --- | --- | --- | --- | --- | --- | --- | --- |
| CCNC(=S)N/N=C(\C)c1c(O)c2ccccc2oc1=O | cell growth | MTT |  |  | IC50 BJ-1 over HCT-116 | selectivity index | > 5.62 |
| CCS(=O)(=O)Oc1cc(/C=N/NC(=O)c2nc3ccccc3s2)ccc1OC | cell growth or viability | MTT | 100 µM | 48 h |  | cell death | 35.5% |
| CSC(=S)N/N=C(\C)c1ccc(S(=O)(=O)N2CCC(C)CC2)cc1 |  | flow cytometry | 3.66 µM (IC50) | 72 h |  | cells in G2/M phase | 29.2% |
| C/C(=N\N=C1/NC(=O)CS1)c1c(O)c2ccccc2oc1=O | cell growth | MTT |  |  | IC50 BJ-1 over HCT-116 | selectivity index | > 10.5 |
| O=C(CCl)c1ccccc1Nc1cccc(C(F)(F)F)c1 | cell growth or viability | CCK-8 |  | 72 h |  | GI50 | 1.08 µM |
| [BH3-][P@+]1(c2ccccc2)CC[C@H](O)CC1 |  | MTT |  | 72 h | IC50 HaCaT over IC50 HCT-116 | selectivity index | 1 |
| COc1ccc(NC(=O)c2c(Nc3ccccc3)sc(C(=O)N/N=C/c3ccc(OC)c(OC)c3)c2NC(C)=O)cc1 | cell growth or viability | SRB | 1 µM | 48 h |  | viability | 48.1% |
| CCNC(=S)NN=Cc1c2ccccc2cc2ccccc12.Cc1ccc(C(C)C)cc1.[Cl-].[Cl-].[Ru+2] | cytotoxicity | MTS |  | 72 h |  | IC50 | 224 ± 7 µM |
| CC(=NN=c1sc(C(=O)c2ccccc2)nn1-c1ccccc1)c1ccc(S(=O)(=O)N2CCC(C)CC2)cc1 |  | flow cytometry | 3.66 µM (IC50) | 72 h |  | cells in S phase | 33.1% |
| [BH3-][P+]1(c2ccccc2)CCCCC1 |  | trypan blue | IC50 | 72 h | untreated | reduction of cell number | 16% |
| C/C(=N\N=c1/[nH]c(-c2ccccc2)cs1)c1c(O)c2ccccc2oc1=O | cell growth | MTT |  |  | IC50 BJ-1 over HCT-116 | selectivity index | > 3.14 |
| CN1C(=O)/C(=N\c2ccc(Cl)cc2Br)c2ccccc21 | cell growth or viability | MTT |  | 48 h |  | IC50 | 28.3 µM |
| [BH3-][P+]1(c2ccccc2)CCC(=O)CC1 |  | MTT |  | 72 h | IC50 HaCaT over IC50 HCT-116 | selectivity index | 1 |
| C/C(=N\Nc1ncnc2sc3c(c12)CCCC3)c1cc(O)ccc1O |  |  |  | 7 d |  | colony formation | decreased |
| CSC(=NN=C(C)c1ccc(S(=O)(=O)N2CCC(C)CC2)cc1)N(C)C |  | flow cytometry | 3.66 µM (IC50) | 72 h |  | cells in pre-G1 phase | 11.5% |
| O=[P@]1(c2ccccc2)CC[C@@H](O)CC1 |  | MTT |  | 72 h | IC50 HaCaT over IC50 HCT-116 | selectivity index | 1 |
| O=c1c(-c2cnn(-c3ccccc3)c2)c(C(F)(F)F)oc2c(O)c(O)ccc12 | apoptosis | annexin V flow cytometry |  |  |  | EC50 | ~58 µM |
| O=C1CCP(=O)(c2ccccc2)CC1 |  | MTT |  | 72 h | IC50 HaCaT over IC50 HCT-116 | selectivity index | 1 |
| CCN(C(=O)c1cc(F)ccc1Oc1nncnc1N1CCC2(C1)CN([C@H](CCCN(C)CCOC)C(C)C)C2)C(C)C | cell growth or viability |  |  | 7 days |  | GI50 | > 10 µM |

A few entries again:
| Compound | effect on | technique | tested at | time | relative to | measurement | value |
| --- | --- | --- | --- | --- | --- | --- | --- |
| O=C1CCP(=O)(c2ccccc2)CC1 |  | MTT |  | 72 h | IC50 HaCaT over IC50 HCT-116 | selectivity index | 1 |
| CCS(=O)(=O)Oc1cc(/C=N/NC(=O)c2nc3ccccc3s2)ccc1OC | cell growth or viability | MTT | 100 µM | 48 h |  | cell death | 35.5% |
